Results collected from several papers.
Lines come from different studies, so protocols differ.
CBF1 full length, N-terminal tag: Centromere-binding protein 1, full length, N-terminal tag (CBF1, Saccharomyces cerevisiae, UniProt P17106, residues 1-351)
UniProt P17106, sequence (whole entry, looked up): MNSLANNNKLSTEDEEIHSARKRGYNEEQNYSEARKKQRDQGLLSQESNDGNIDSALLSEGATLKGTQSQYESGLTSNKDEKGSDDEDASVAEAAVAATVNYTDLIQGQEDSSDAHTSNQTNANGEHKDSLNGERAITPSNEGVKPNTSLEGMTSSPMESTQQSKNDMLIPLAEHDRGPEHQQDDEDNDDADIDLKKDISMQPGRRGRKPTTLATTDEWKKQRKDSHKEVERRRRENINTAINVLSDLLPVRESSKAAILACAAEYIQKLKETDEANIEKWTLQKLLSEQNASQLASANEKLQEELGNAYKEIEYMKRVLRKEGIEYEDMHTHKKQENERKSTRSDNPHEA
IRF7 S101K/S471D/S472D/S475D/S476D/S477D/S483D/S484D/S487D full length, phosphomimetic: Interferon regulatory factor 7, full length, phosphomimetic (IRF7, Homo sapiens, UniProt Q92985, residues 1-503, S101K/S471D/S472D/S475D/S476D/S477D/S483D/S484D/S487D)
UniProt Q92985, sequence (whole entry, unmodified, looked up): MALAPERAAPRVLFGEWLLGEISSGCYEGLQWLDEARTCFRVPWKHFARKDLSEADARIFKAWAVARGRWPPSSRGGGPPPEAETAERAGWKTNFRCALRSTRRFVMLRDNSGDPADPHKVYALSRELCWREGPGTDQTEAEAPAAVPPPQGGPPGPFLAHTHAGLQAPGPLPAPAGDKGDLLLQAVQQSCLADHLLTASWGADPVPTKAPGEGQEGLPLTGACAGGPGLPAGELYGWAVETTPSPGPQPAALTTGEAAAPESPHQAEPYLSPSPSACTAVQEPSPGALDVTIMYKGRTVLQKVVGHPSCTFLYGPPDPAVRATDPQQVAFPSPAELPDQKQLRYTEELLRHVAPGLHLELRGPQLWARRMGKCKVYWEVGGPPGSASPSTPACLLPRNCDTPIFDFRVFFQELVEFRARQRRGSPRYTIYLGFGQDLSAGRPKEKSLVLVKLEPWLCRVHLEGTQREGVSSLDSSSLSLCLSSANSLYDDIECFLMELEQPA

GAAAGTAC
E-score (Histone acetyltransferase KAT6A, winged helix 2, GST fusion (KAT6A, Homo sapiens, UniProt Q92794, residues 85-181); protein binding microarray; double-stranded DNA, one strand shown, in vitro; not given, 8-mer, flanks averaged, mean of 2 arrays, mostly near background; relative to: not given, higher = stronger binding): 0.0283

TGTACGAAGCTATCGCGCATGACTATAGTAGTTAGGGTCTTGATTCGCTTGACGCTGCTG
fluorescence intensity (CBF1 full length, N-terminal tag; protein-binding microarray; double-stranded DNA, one strand shown, in vitro; 0.8 µM, whole 60-bp probe, no competitor; higher = stronger binding): 586 a.u.

GCCTAGCACGAAGATTCCAGTTTCGAGACGTGCTAGGTCTTGATTCGCTTGACGCTGCTG
log fluorescence (IRF7 S101K/S471D/S472D/S475D/S476D/S477D/S483D/S484D/S487D full length, phosphomimetic; protein-binding microarray; double-stranded DNA, one strand shown, in vitro; 250 nM, 60-bp whole probe, together with: salmon DNA 0.4 mg/ml; relative to: random background probes, higher = stronger binding): 6.62 z-score

PhoQ, residues 284 288 289 292 302 303 SASVAL
fold induction (PhoP, residues 12 14 15 18 19 LHATL (Escherichia coli, UniProt P23836); Sort-seq, measured: YFP reporter; E. coli; PhoQ-PhoP variant library, together with: 10 µM Mg2+; relative to: high Mg2+ state, higher = stronger signaling): 9.73

GCCTAGCACGACGGTCTCGGTATCTGGACGTGCTAGGTCTTGATTCGCTTGACGCTGCTG
log fluorescence (IRF7 S101K/S471D/S472D/S475D/S476D/S477D/S483D/S484D/S487D full length, phosphomimetic; protein-binding microarray; double-stranded DNA, one strand shown, in vitro; 250 nM, 60-bp whole probe, together with: salmon DNA 0.4 mg/ml; relative to: random background probes, higher = stronger binding): 1.66 z-score

AGCGTTTA
E-score (Histone acetyltransferase KAT6A, both winged helices, GST fusion (KAT6A, Homo sapiens, UniProt Q92794, residues 1-181); protein binding microarray; double-stranded DNA, one strand shown, in vitro; not given, 8-mer, flanks averaged, mean of 2 arrays, mostly near background; relative to: not given, higher = stronger binding): 0.168

GCCTAGCACTTAGGACTGAGTTTCGATTAGTGCTAGGTCTTGATTCGCTTGACGCTGCTG
log fluorescence (Interferon regulatory factor 5, full length, phosphomimetic (IRF5, Homo sapiens, UniProt Q13568-2, residues 1-514, K96S/S451D/S453D/S456D/S462D); protein-binding microarray; double-stranded DNA, one strand shown, in vitro; 250 nM, 60-bp whole probe, together with: salmon DNA 0.4 mg/ml; relative to: random background probes, higher = stronger binding): 9.24 z-score

CTAGAGCCAAGACAAAACGTGGCAGGGAAGCTTTTCGTCTTGATTCGCTTGACGCTGCTG
fluorescence intensity (CBF1 full length, N-terminal tag; protein-binding microarray; double-stranded DNA, one strand shown, in vitro; 0.8 µM, whole 60-bp probe, no competitor; higher = stronger binding): 546 a.u.
